Published values gathered from unrelated publications.
Each numbered part is a random draw from the data of one study; scales do not carry over between parts. Substitutions count along the parent as printed.

Series 1
Target: Histone acetyltransferase KAT6A, winged helix 1, GST fusion (KAT6A, Homo sapiens, UniProt Q92794, residues 1-85)
Method: protein binding microarray
Molecule type: double-stranded DNA, one strand shown
Medium: in vitro
Tested at: not given
Setting: 8-mer, flanks averaged, mean of 2 arrays, mostly near background
Relative to: not given
Reading: higher = stronger binding
Target sequence (chain): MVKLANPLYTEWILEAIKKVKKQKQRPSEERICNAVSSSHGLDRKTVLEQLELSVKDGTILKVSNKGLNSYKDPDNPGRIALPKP
Oligonucleotide | E-score
GCACATGA | -0.0753
AAAATCGT | 0.0358
CGTAAACG | 0.271
CTATTAGA | -0.2
ATTGAAAA | -0.205
GACCTGAA | -0.0527
AAAGTGTC | -0.0887
CGCTTACC | 0.268
AGCAGACC | -0.0356
AAATCTAA | -0.211
ATGCGCCA | 0.127
CGTACCCA | -0.0713
CATTTATA | -0.0882
TACTCCAA | -0.0254
AAGATAGT | -0.158
GAAAGTGC | 0.0338
ATTAGCTA | -0.2
CTACTAAC | -0.0565
GTCTTATA | -0.117
ATTGTTAA | -0.145
ACTCCCGC | 0.342
AGTTGGAT | -0.248
CCACACAA | -0.268
AGGGTGAA | -0.273
GCGGATTA | 0.158

Series 2
Target: Interferon regulatory factor 5, full length, phosphomimetic (IRF5, Homo sapiens, UniProt Q13568-2, residues 1-514, K96S/S451D/S453D/S456D/S462D)
Method: protein-binding microarray
Molecule type: double-stranded DNA, one strand shown
Medium: in vitro
Tested at: 250 nM
Setting: 60-bp whole probe
Added: salmon DNA 0.4 mg/ml
Relative to: random background probes
Reading: higher = stronger binding
All sequences stand within: GCCTAGCAC … GTCTTGATTCGCTTGACGCTGCTG
Oligonucleotide | log fluorescence [z-score]
TGAAATTTTAATAACACAGAGTGCTAG | 0.888
CCCAATTGTCTTTTCACTTTGTGCTAG | 1.3
GACGGACTGCTTATCCTGTCGTGCTAG | -0.0365
TCAGATTTCCATTATTGACTGTGCTAG | 0.745
GACGGTTTCGAGACTGGGGACGTGCTA | 3.37
GATGGTTTCCTTTCCCTGACGTGCTAG | 1.45
GGGTCTTCAGGTTCTCCCCCAGTGCTA | -0.573
GACGGACTGGGGTTTCGTGACGTGCTA | -0.0961
TTAGAATTCAGTTTCGATTAGTGCTAG | 9.55
TTCGATTTCGGGTTTCGATTAGTGCTA | 8.91
GACGGTATCGACACTGGGGAGGTGCTA | 1.61
TCAAATCTGTGTTATTAAACTGTGCTA | 0.728
TCATGTTTGGGCATTTTTACTGTGCTA | 0.236
TTAGAACTGAGTTTCGATGAGTGCTAG | 8.2
TTAGATATCCGTTTCGATTAGTGCTAG | 7.47
GACGAATTGGGGTATCGAGACGTGCTA | 0.372
TTAGGACTGCTTTTCCTTTGGTGCTAG | 0.127
AAAAAAAATGGAAATCTACCCGTGCTA | 0.351
TTATGTATCGACACTGGGTTAGTGCTA | 2.58

Series 3
Target: CCND3, cyclin fold, Cln2 fusion (human)
Method: yeast growth competition, sequencing
Medium: yeast
Setting: weak parent motif
Relative to: not given
Reading: higher = stronger binding
Starting sequence: E2F3 docking peptide (human); PPAKRRLELGESG; partner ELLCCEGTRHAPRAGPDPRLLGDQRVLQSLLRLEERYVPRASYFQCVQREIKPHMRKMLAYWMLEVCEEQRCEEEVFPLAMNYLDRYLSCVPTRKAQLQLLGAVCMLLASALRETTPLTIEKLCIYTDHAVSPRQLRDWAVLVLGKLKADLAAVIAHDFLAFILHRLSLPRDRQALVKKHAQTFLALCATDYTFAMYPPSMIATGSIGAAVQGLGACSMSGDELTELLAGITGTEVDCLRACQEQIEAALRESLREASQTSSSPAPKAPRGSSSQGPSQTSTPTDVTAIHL
Change | normalised enrichment score
E11A | 0.213
R5K L9F | 0.426
K4A | 0.141
R6A | 0.169
L7A | 0.169
E8A | 0.157
P1A | 0.132

Series 4
Target: Ras GTPase-activating protein-binding protein 1, full length (G3BP1, Homo sapiens, UniProt Q13283)
Sequence of UniProt Q13283 (whole entry, looked up): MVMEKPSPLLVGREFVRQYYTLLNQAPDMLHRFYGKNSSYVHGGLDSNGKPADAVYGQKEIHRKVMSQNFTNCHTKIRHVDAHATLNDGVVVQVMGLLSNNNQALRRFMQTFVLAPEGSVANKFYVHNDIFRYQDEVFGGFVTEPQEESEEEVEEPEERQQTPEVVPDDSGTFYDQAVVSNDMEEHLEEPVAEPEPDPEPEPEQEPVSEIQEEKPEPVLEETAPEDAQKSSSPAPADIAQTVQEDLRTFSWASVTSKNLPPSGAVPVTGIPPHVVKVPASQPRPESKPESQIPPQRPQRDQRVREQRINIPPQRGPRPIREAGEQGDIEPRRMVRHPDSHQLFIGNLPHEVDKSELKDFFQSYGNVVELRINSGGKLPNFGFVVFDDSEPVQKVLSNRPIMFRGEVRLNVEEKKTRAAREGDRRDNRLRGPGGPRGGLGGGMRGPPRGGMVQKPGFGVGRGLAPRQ
Method: RNA Bind-n-Seq
Molecule type: RNA
Medium: in vitro
Tested at: 200 nM
Setting: whole 134-nt RNA, ends assumed
Added: 150 mM KCl
Relative to: input library
Reading: higher = stronger binding
Oligonucleotide | log2 enrichment
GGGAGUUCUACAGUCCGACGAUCUGGCCCUGGUGGCAUGCGGGGAGGAAGAGGUGGCCUCAUGGAUCGUGGUGAUCCCGGUGGAAUGUUCAGAGGUGGCCGUGGUGGAGACAGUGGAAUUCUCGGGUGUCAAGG | 0.0563
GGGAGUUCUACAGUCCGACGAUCUGGCCCUGGUGGCAUGCGGGGAGGAAGAGGUGGCCUCAUGGAUCGUGGUGGUCCCGGUGGAAUGUUCAGAGGUGGCCGUGGUGGAGACACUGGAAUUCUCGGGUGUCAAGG | 0.0839
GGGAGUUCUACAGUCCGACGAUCCCUGUGCUACACAUCGUAUGUACCGAAUCGGGGCCCCCCCGGGCCCCCCCGGCCCCCCCGGAAAGUAUUAUGUUACGCCGUUCGGAUCUGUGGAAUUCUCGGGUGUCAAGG | -0.238
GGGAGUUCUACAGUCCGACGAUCUUCCCGGAGAACUCGAGUAAAUCUAGAAGUUGCCAGGUUUCAGAACUAUUUAUUCCUUUAAUGUGCAGACGAAGGGAACGUCAUCGUUUGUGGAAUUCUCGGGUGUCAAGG | 0.117
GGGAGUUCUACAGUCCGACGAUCCUCAAGUCCUGUGCUACACAUCGUAUGUACCGAAUCGGCCGGGGCCGGGCCGGAAAGUAUUAUGUUACGCCGUUCGGAUCUGCACUUCCAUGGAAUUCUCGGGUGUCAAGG | -0.34
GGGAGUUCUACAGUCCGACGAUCCACAGACAACACGCACCCACACAGACACAGAGGGAGGGGGUUGGGAUGGGGACAGGGUGCACAGCAGGGCGGGGUAGGACCCCAGCCCCUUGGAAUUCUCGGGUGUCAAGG | 1.66
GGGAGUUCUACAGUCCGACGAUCCCUGUGCUACACAUCGUAUGUACCGAAUCGGGUUUUUUGGUUUUUUGGGGUUUUUUGGGGAAAGUAUUAUGUUACGCCGUUCGGAUCUGCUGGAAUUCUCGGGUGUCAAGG | -0.873
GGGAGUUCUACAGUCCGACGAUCGAGGAGAUAAUCUCGGAAAAGUUACGGAAACCUGGGAAGUCGGCGAAACCCUACGUUCGGGUGUUUUCGGAAGCAGCCGAAGCGGCCGCCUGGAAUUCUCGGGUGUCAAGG | -0.762
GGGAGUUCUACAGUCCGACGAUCCACAGACAACACGCACCCACACAGACACAGAGGGAAGGGGUUGGGAUGGGGACAGGGUGAACAGCAGGGCGGGGUAGGACCCCAGCCCCUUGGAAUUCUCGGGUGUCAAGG | 1.74
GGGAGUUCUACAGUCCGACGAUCAGUCCUGUGCUACACAUCGUAUGUACCGAAUCGGGGCCCCCGGCCCCCGGCCCCCGGAAAGUAUUAUGUUACGCCGUUCGGAUCUGCACUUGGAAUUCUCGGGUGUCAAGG | -0.82

Excerpt of the above (series 1):
Oligonucleotide | E-score
CGTAAACG | 0.271
CTATTAGA | -0.2
ATTGAAAA | -0.205
